# Measured values pooled from the literature.
# Compare with care: the assays were run in different laboratories. Values joined by “and” are separate records of one study, mostly repeats; a detail may differ. ± gives the spread as reported.
Structure (SMILES),assay,system,conditions,how to read,measurement,result
COc1cc(C(=O)NCCOCCOCCOCCNC(=O)c2ccc([18F])nc2)ccc1NC(=O)C1NC(CC(C)(C)C)C(C#N)(c2ccc(Cl)cc2F)C1c1cccc(Cl)c1F (stereo not drawn),HPLC,"BALB/c mice, plasma","intravenous, 1 h post injection",,intact compound,~30% and 30%
CCCCCCCCCCCCCCCCCC(=O)N[C@@H](CCCCN)C(=O)N[C@@H](CCCCN)C(=O)N(CCCCN)CC(=O)N[C@@H](CCCCN)C(=O)N[C@@H](CCCCN)C(N)=O,,Galleria mellonella larvae,"50 mg/kg, 4 d",,survival,100%
COc1cc(NC(=O)C(=O)c2c(C)n(Cc3ccc(Cl)cc3)c3ccc(C)cc23)ccn1,,"cynomolgus monkey, plasma","oral, 10 mg/kg",,AUC,3.26 µg·h/mL
C[C@H]1N=C(c2ccccc2F)c2cc(Br)ccc2-n2cnc(C(=O)NCCS(=O)(=O)O)c21,,Swiss Webster mouse,"oral, 750 µg of parent drug, 0 to 48 h",baseline: dose,excretion in urine and feces,2.9 ± 0.8%
Cc1ccnc(-c2cc(C)ccn2)c1.O.[C-]#[O+].[C-]#[O+].[C-]#[O+].[Re+],"RP-HPLC C18 column, measured: aqua complex","MeCN:water 40:60, 0.1% TFA",isocratic elution,,capacity factor,3.3
COC(=O)C[C@](O)(CCCC(C)(C)OC(C)=O)C(=O)O[C@@H]1C(OC)=C[C@]23CCCN2CCc2cc4c(cc2[C@H]13)OCO4,,"CD1 mouse, kidney","oral, 1 mg/kg, 2 h",,tissue concentration,185 ng/mL
"O=C(c1ccc(F)cc1)C1CCN(C2Cc3c(cccc3OCC[18F])CC2O)CC1 (single isomer, unassigned; (-))",,"cynomolgus monkey, arterial plasma","time not given, solvent extraction",,extraction recovery,76 to 87%
CC(C)C[C@@H](N)C(=O)NCC(=O)N[C@H](C)C(=O)N[C@H](CO)C(=O)N[C@H](Cc1c[nH]c2ccccc12)C(=O)N[C@H](Cc1c[nH]cn1)C(=O)N[C@H](CCCNC(=N)N)C(=O)N1CCC[C@@H]1C(=O)N[C@H](CC(=O)O)C(=O)N[C@H](CCCCN)C(=O)N[C@H](CS)C(=O)N[C@H](CS)C(=O)N[C@H](CC(C)C)C(=O)NCC(=O)N[C@H](Cc1ccc(O)cc1)C(=O)N[C@H](CCC(N)=O)C(=O)N[C@H](CCCCN)C(=O)N[C@H](CCCNC(=N)N)C(=O)N1CCC[C@@H]1C(=O)N[C@H](CC(C)C)C(=O)N1CCC[C@@H]1C(N)=O,LC-MS/MS,rat plasma,"25 ng/mL, -80 to 25 °C, 3 freeze-thaw cycles",baseline: nominal,accuracy,91.5%
O=c1cc(-c2ccccc2)oc2c(Br)c(O)c(O)c(O)c12,,"C57BL/6 mouse, plasma","intravenous, 10 mg/kg",,time to fall to EC99.9,~30 min
CC(C)C[C@H](NC(=O)[C@H](CCCCN)NC(=O)[C@H](CCC(=O)O)NC(=O)[C@H](C)NC(=O)[C@@H](NC(=O)[C@H](CCCCN)NC(=O)[C@H](CC(=O)O)NC(=O)[C@H](Cc1ccc(O)cc1)NC(=O)[C@H](Cc1ccccc1)NC(=O)[C@H](C)NC(=O)[C@H](CCCCN)NC(=O)[C@H](CC(C)C)NC(=O)[C@H](Cc1c[nH]c2ccccc12)NC(=O)[C@@H](N)CC(=O)O)C(C)C)C(=O)N[C@@H](CCCCN)C(=O)N[C@@H](CCC(=O)O)C(=O)N[C@@H](C)C(=O)N[C@@H](Cc1ccccc1)C(=O)N1CCC[C@H]1C(=O)N[C@@H](CC(=O)O)C(=O)N[C@@H](Cc1c[nH]c2ccccc12)C(=O)N[C@@H](C)C(=O)N[C@@H](CCCCN)C(=O)N[C@@H](C)C(=O)N[C@@H](C)C(=O)N[C@@H](Cc1ccc(O)cc1)C(=O)N[C@@H](CC(=O)O)C(=O)N[C@@H](CCCCN)C(=O)N[C@@H](C)C(=O)N[C@@H](C)C(=O)N[C@@H](CCC(=O)O)C(=O)N[C@@H](CCCCN)C(=O)N[C@@H](C)C(=O)N[C@@H](CCCCN)C(=O)N[C@@H](CCC(=O)O)C(=O)N[C@@H](C)C(=O)N[C@@H](C)C(=O)O,,"cynomolgus monkey male, plasma","intravenous infusion, 75 mg/kg every other day, day 27",,AUC(0-inf),8630 µg·h/mL
CC[C@H](C)[C@H](NC(=O)CN)C(=O)N[C@@H](CCCNC(=N)N)C(=O)N[C@@H](CCCCN)C(=O)N[C@@H](Cc1c[nH]c2ccccc12)C(=O)N[C@@H](Cc1ccccc1)C(=O)N[C@@H](CCCCN)C(=O)N[C@@H](CCCCN)C(=O)N[C@@H](C)C(=O)N[C@@H](C)C(=O)N[C@@H](Cc1c[nH]cn1)C(=O)N[C@H](C(=O)NCC(=O)N[C@@H](CCCCN)C(=O)N[C@@H](CCC(=O)O)C(=O)N[C@H](C(=O)NCC(=O)N[C@@H](CCCCN)C(=O)N[C@H](C(=O)N[C@@H](C)C(=O)N[C@@H](CC(C)C)C(=O)N[C@@H](CC(N)=O)C(=O)N[C@@H](C)C(=O)N[C@@H](CS)C(=O)N[C@@H](CC(C)C)C(=O)O)C(C)C)C(C)C)C(C)C,,zebrafish embryos,"1 h, 4, 28, 52 hpf",,acute toxic concentration,5 to 25 µg/mL
CC[C@H](C)[C@@H]1NC(=O)[C@H](Cc2ccc(O)cc2)NC(=O)[C@@H](N)CSSC[C@@H](C(=O)NCC(=O)N[C@@H](CCCCNC(=O)COCCOCCNC(=O)COCCOCCNC(=O)CC[C@H](NC(=O)CC[C@H](NC(=O)CCCCCCCCCCCCCCCCC(=O)O)C(=O)O)C(=O)O)C(=O)NCC(N)=O)NC(=O)[C@H](CC(N)=O)NC(=O)[C@H](CCC(N)=O)NC1=O,mass spectrometry,C57BL/6 mice,"intraperitoneal, 1 mg/kg, 24 h",,plasma level relative to Cmax,> 50%
CC(C)[C@H](NC(=O)CNC(=O)[C@H](CCC(N)=O)NC(=O)[C@H](C)N)C(=O)O,,human,"10 mg/kg, 3 days, thrice daily dosing",,discontinuation due to adverse events,0%
CC[C@H](C)[C@@H]1NC(=O)[C@H]([C@@H](C)O)NC(=O)[C@H](CO)NC(=O)[C@H](CCSC)NC(=O)[C@H](CCCNC(=N)N)NC(=O)[C@@H]2CCCN2C(=O)[C@H](CC(=O)O)NC(=O)CNC(=O)[C@@H]2CSSC[C@@H]3NC(=O)[C@H]([C@@H](C)O)NC(=O)[C@H](CCCCN)NC(=O)[C@@H]4CCCN4C(=O)[C@H](CSSC[C@H](NC(=O)[C@H](C(C)C)NC(=O)[C@H](CC(N)=O)NC(=O)[C@H](CCC(N)=O)NC(=O)[C@@H]4CCCN4C(=O)[C@H]([C@@H](C)CC)NC(=O)[C@H](CCCNC(=N)N)NC(=O)[C@H](CC(=O)O)NC(=O)[C@H](CCCNC(=N)N)NC(=O)[C@@H](N)CSSC[C@@H](C(N)=O)NC(=O)[C@H](CCCCN)NC(=O)CNC3=O)C(=O)N[C@@H](CCC(=O)O)C(=O)N[C@@H](CCC(N)=O)C(=O)N[C@@H](CCSC)C(=O)N[C@@H](CCCCN)C(=O)N[C@@H](CCCCN)C(=O)N[C@@H](CC(N)=O)C(=O)NCC(=O)N[C@@H](CCCCN)C(=O)N2)NC(=O)[C@H](CCC(N)=O)NC(=O)[C@H](CC(C)C)NC(=O)[C@H](CCC(=O)O)NC(=O)[C@H](C)NC1=O,chemical stability,"pig, simulated intestinal fluid",,,half-life,4.4 h
O=P1(NCCCl)NCCCO1 (stereo not drawn),,"rat, plasma","intravenous, 10 mg/kg, added: ketoconazole 40 mg/kg oral 50 min before",,Cmax,41.1 ± 11.3 ng/mL
CN(C)C(CNC(=O)Nc1cc(C(F)(F)F)ccc1N1CCOCC1)c1ccncc1 (stereo not drawn),,"mouse, serum","intraperitoneal, 180 mg/kg single dose",,serum glucose,242 mg/dL
CC[C@H](C)C(=O)N1CCC(NC(=O)Nc2ccc(OC(F)(F)F)c(F)c2)CC1,,healthy volunteers,"oral, 8 mg single dose, 14 (unit not given)",,subjects with moderate TEAE,0%
CC(C)C[C@@H]1NC(=O)[C@@H](Cc2c[nH]c3ccccc23)NC(=O)[C@H](CCCNC(=N)N)NC(=O)[C@@H](CCC(=O)O)NC(=O)[C@H](CCC(N)=O)NC(=O)[C@@H](CCC(=O)O)NC(=O)[C@H](CCCNC(=N)N)NC(=O)[C@@H](Cc2c[nH]c3ccccc23)NC1=O,haemolysis,,660 µM,,haemolysis,4%
C/C=C/C=C/C/C=C/CCCCCCCc1cccc(O)c1O,,"female Kunming mice, tumour-bearing, lungs","intravenous, 10 mg/kg, 8 h",,tissue concentration,4350 ± 870 ng/g
CC(C)(CCCC/C=C/CCCCCC(C)(C)C(=O)O)C(=O)O,,"beagle dog, plasma","intravenous, 5 mg/kg",,half-life,26.2 h
CC[C@H](C)[C@H](NC(=O)CNC(=O)[C@H](CSCC(N)=O)NC(=O)[C@@H](NC(=O)CNC(=O)[C@H](CCCNC(=N)N)NC(=O)[C@@H](NC(=O)[C@H](CCCNC(=N)N)NC(=O)[C@H](CCC(=O)O)NC(=O)CNC(=O)[C@H](CCCNC(=N)N)NC(=O)[C@H](CCCCN)NC(=O)[C@H](CSCC(N)=O)NC(=O)[C@H](Cc1c[nH]cn1)NC(=O)CNC(=O)[C@H](CCCCN)NC(=O)[C@H](CCCNC(=N)N)NC(=O)[C@H](CSCC(N)=O)NC(=O)[C@H](Cc1ccc(O)cc1)NC(=O)[C@@H](N)CSCC(N)=O)C(C)C)[C@@H](C)O)C(=O)N[C@@H](CCCNC(=N)N)C(=O)N[C@@H](Cc1ccccc1)C(=O)N[C@@H](CC(C)C)C(=O)N[C@@H](Cc1ccc(O)cc1)C(=O)N[C@@H](CSCC(N)=O)C(=O)N[C@@H](CSCC(N)=O)C(=O)N1CCC[C@H]1C(=O)N[C@@H](CCCNC(=N)N)C(=O)N[C@@H](CCCNC(=N)N)C(=O)NCC(=O)N[C@@H](CC(C)C)C(=O)N[C@@H](CC(C)C)C(=O)NO,,100% human serum,"27 µM, 37 °C, heat-inactivated serum",,onset of degradation,2 min

# A few entries again:
Structure (SMILES),assay,system,conditions,how to read,measurement,result
CC[C@H](C)[C@@H]1NC(=O)[C@H](Cc2ccc(O)cc2)NC(=O)[C@@H](N)CSSC[C@@H](C(=O)NCC(=O)N[C@@H](CCCCNC(=O)COCCOCCNC(=O)COCCOCCNC(=O)CC[C@H](NC(=O)CC[C@H](NC(=O)CCCCCCCCCCCCCCCCC(=O)O)C(=O)O)C(=O)O)C(=O)NCC(N)=O)NC(=O)[C@H](CC(N)=O)NC(=O)[C@H](CCC(N)=O)NC1=O,mass spectrometry,C57BL/6 mice,"intraperitoneal, 1 mg/kg, 24 h",,plasma level relative to Cmax,> 50%
C/C=C/C=C/C/C=C/CCCCCCCc1cccc(O)c1O,,"female Kunming mice, tumour-bearing, lungs","intravenous, 10 mg/kg, 8 h",,tissue concentration,4350 ± 870 ng/g
